Experimental data gathered from unrelated publications.
Lines come from different studies, so protocols differ. Several values in a cell are separate wells, animals, samples, runs or records. Numbers after ± are the reported error.
uncharacterized protein: uncharacterized protein (Anopheles coluzzii, UniProt A0A6E8VQK1)
UniProt Q06151, sequence (whole entry, unmodified, looked up): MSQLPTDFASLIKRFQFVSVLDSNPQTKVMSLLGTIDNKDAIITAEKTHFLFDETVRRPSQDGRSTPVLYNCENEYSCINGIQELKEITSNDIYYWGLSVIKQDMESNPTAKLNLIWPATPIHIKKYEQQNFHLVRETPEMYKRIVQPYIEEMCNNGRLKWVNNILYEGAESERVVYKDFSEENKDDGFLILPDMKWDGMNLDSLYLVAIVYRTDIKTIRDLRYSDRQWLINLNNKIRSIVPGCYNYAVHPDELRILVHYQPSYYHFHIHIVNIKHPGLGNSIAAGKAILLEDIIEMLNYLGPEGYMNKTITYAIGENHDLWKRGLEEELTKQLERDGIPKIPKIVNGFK
UniProt P37088, sequence (whole entry, looked up): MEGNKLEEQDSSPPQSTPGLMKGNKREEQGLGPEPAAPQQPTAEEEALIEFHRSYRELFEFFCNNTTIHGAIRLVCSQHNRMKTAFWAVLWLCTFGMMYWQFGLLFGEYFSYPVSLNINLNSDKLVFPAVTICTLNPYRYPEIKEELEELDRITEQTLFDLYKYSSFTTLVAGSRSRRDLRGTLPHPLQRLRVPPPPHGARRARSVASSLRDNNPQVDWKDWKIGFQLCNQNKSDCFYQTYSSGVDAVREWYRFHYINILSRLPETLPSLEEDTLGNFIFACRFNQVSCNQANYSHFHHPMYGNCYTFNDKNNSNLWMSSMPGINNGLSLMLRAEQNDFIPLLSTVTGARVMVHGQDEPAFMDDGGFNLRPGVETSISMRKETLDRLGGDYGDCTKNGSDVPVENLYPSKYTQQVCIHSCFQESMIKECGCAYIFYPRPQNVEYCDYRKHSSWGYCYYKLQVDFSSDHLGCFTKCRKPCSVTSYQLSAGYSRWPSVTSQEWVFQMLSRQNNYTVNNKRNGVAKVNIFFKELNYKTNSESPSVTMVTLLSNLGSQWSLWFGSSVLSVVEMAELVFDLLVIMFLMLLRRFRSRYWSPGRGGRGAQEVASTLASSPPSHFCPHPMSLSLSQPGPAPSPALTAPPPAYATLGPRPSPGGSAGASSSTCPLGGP
UniProt Q6PJP8, sequence (whole entry, looked up): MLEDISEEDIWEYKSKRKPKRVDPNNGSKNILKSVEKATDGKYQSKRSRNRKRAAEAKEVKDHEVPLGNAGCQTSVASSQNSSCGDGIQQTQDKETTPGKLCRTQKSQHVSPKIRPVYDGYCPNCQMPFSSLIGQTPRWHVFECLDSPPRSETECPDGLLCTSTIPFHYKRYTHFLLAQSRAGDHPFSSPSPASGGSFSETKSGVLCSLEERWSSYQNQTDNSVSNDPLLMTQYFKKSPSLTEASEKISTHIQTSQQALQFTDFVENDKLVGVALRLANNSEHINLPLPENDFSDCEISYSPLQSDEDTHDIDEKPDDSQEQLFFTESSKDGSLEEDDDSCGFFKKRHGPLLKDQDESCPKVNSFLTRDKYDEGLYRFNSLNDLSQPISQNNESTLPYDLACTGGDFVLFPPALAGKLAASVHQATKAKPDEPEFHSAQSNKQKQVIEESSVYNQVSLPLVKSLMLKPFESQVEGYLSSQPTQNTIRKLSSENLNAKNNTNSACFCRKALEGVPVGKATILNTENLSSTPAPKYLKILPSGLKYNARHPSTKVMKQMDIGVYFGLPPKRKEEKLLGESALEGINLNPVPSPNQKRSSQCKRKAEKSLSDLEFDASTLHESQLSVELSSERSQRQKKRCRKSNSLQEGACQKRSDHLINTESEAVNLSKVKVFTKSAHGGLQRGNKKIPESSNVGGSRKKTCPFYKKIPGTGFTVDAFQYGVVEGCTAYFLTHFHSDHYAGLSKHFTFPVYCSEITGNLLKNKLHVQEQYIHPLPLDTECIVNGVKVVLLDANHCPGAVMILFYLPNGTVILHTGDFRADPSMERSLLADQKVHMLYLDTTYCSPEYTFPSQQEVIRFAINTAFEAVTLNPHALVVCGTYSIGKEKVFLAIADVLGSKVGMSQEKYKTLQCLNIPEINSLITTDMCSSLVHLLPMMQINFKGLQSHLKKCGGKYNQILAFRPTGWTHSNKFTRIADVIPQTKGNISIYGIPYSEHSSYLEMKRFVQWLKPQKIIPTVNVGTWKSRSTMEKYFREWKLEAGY
UniProt P42765, sequence (whole entry, looked up): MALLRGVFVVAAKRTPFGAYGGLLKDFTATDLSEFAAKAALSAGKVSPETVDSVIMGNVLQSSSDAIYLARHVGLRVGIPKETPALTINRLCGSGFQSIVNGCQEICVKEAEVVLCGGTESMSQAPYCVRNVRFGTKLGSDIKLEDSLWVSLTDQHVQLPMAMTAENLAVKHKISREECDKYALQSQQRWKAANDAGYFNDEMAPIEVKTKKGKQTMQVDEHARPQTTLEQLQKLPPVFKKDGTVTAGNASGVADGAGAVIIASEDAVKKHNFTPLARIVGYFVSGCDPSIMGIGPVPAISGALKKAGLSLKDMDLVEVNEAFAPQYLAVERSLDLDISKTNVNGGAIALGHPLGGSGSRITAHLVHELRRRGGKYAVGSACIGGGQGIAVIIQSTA
UniProt P00942, sequence (whole entry, unmodified, looked up): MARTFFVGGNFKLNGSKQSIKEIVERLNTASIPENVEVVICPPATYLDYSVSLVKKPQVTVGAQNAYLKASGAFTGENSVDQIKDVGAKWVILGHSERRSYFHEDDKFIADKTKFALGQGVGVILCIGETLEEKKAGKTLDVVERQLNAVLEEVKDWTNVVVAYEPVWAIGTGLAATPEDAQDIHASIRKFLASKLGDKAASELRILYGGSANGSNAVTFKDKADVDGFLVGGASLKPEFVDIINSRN
UniProt P46094, sequence (whole entry, looked up): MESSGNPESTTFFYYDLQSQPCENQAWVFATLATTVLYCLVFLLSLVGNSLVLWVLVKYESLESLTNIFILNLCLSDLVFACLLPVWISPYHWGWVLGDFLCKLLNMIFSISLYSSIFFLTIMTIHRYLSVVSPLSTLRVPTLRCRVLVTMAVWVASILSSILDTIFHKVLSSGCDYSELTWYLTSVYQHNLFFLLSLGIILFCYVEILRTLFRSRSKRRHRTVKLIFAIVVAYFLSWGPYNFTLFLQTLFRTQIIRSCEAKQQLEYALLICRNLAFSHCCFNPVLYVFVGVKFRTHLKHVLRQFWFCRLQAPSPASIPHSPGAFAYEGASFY
UniProt P20782, sequence (whole entry, unmodified, looked up): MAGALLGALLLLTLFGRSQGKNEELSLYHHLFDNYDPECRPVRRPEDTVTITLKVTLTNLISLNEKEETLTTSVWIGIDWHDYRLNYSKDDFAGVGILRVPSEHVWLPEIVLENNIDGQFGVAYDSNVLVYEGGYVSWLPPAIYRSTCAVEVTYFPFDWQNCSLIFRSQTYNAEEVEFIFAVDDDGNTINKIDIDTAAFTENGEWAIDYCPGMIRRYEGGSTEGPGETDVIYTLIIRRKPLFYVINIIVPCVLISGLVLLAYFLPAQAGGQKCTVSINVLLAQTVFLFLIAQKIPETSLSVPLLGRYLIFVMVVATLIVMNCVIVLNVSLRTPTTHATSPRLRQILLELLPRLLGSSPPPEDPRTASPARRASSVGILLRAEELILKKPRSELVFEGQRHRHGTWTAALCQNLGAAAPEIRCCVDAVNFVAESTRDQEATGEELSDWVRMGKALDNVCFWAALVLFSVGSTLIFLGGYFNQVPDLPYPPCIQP
UniProt A2RJT9, sequence (whole entry, unmodified, looked up): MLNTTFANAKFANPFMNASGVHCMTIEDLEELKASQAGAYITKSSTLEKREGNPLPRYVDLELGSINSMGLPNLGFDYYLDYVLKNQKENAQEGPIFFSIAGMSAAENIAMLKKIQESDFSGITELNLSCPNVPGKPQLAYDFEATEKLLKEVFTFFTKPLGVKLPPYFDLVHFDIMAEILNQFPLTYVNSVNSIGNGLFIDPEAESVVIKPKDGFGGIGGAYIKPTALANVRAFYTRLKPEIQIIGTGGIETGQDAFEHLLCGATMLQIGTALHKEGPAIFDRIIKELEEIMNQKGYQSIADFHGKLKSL
UniProt Q8IVW4, sequence (whole entry, looked up): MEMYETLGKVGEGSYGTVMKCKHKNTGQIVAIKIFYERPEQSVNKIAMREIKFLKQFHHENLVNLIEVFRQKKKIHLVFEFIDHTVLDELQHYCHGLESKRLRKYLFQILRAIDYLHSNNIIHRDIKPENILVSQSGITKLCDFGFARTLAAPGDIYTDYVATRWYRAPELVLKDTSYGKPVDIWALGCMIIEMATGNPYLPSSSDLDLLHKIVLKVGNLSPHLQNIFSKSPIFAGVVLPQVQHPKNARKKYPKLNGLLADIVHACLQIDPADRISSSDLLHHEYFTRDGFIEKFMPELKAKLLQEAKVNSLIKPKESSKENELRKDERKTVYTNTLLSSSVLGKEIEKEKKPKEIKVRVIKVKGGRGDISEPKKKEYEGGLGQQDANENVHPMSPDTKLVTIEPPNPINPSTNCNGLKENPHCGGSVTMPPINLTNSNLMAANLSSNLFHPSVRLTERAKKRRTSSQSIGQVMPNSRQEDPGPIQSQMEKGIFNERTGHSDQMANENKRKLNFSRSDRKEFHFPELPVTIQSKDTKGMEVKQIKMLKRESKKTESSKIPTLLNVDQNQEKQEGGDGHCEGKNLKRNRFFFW
UniProt Q9NZP8, sequence (whole entry, looked up): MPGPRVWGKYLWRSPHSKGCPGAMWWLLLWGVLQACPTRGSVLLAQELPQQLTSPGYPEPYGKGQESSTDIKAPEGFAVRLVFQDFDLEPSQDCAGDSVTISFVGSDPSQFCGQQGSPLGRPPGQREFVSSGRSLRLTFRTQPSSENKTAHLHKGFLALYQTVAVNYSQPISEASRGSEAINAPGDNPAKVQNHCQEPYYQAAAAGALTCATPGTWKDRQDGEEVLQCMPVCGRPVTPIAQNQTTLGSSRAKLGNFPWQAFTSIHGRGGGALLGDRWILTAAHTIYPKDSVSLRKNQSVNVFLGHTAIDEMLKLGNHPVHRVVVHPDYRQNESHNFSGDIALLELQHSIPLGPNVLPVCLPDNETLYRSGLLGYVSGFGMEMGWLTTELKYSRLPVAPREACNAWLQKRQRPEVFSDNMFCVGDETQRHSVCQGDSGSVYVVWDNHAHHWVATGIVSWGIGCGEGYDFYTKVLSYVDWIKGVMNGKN

CNC(=O)Oc1cccc2c1OC(C)(C)O2 — remaining activity (uncharacterized protein; enzyme activity, inhibitor; Sf9 cell homogenate; 1.163 µM, 0.1667 h, with: α-naphthyl acetate substrate; baseline: no inhibitor): 95.4%
[2H]c1c([2H])c([C@]2([2H])CCCN2C(=O)C(C)(C)Oc2ccc3cn[nH]c3c2)c([2H])c([2H])c1C([2H])([2H])[2H] — remaining binding (CDKL3 (Homo sapiens, UniProt Q8IVW4); KINOMEscan; 1 µM; baseline: DMSO control): 90%
O=C(c1ccc(Cl)cc1)N1CCN2C(=O)N(OC(=O)N3CCOc4ccccc43)C(=O)C2C1 (stereo not shown) — median ratio (Complement C1r subcomponent-like protein (C1RL, Homo sapiens, UniProt Q9NZP8); enzyme activity, inhibitor, MS-based ABPP; SW-620 conditioned medium; 10 µM, 1 h, 37 °C; baseline: compound over DMSO, lower = stronger inhibition): 1.21
Nc1ncnc2c1ncn2[C@@H]1O[C@H](COP(=O)(O)OP(=O)(O)OP(=O)(O)O)[C@@H](O)[C@H]1O — fluorescence ratio F+/F- (matB (Rhodopseudomonas palustris, UniProt Q6ND88, C106A/K488A/Q457C/R286C); binding; pH 7.5, 50 mM Tris-HCl, 100 mM NaCl, gel-filtered protein): 2.9
CN1CCN(c2cc(-c3ccncc3)c(-c3ccc4ccccc4c3)nn2)CC1 — activation (XCR1 (Homo sapiens, UniProt P46094); agonist, FLIPR; 12.5 µM): -0.7%
O=C1CC(C(=O)O)NC(=O)N1 (stereo not shown) — kred (Dihydroorotate dehydrogenase A (fumarate) (pyrDA, Lactococcus lactis subsp. cremoris, UniProt A2RJT9, V133T); flavin reduction, stopped-flow; Lactococcus lactis; pH 8.5, 4 °C): 41 ± 0.8 s⁻¹
c1cncc([C@@H]2CCCCN2)c1 — koff (Chrnd/Chrna1/Chrne (Mus musculus, UniProt P02716+P04756+P20782, G173K/S470W); single-channel kinetics; K chain side site): 2010 s⁻¹
C[n+]1cn([C@@H]2O[C@H](COP(=O)([O-])OP(=O)(O)OP(=O)(O)OC[C@H]3O[C@@H](n4cnc5c(=O)[nH]c(N)nc54)[C@H](O)[C@@H]3O)[C@@H](O)[C@H]2O)c2nc(N)[nH]c(=O)c21 — stoichiometry second site (m7GpppX diphosphatase (DCS1, Saccharomyces cerevisiae, UniProt Q06151, H268N); binding, ITC): 1.01
CC(C)[C@@H]1NC(=O)[C@H](C)OC(=O)[C@@H](C(C)C)NC(=O)[C@@H](C(C)C)OC(=O)[C@H](C(C)C)NC(=O)[C@H](C)OC(=O)[C@@H](C(C)C)NC(=O)[C@@H](C(C)C)OC(=O)[C@H](C(C)C)NC(=O)[C@H](C)OC(=O)[C@@H](C(C)C)NC(=O)[C@@H](C(C)C)OC1=O — Luke-S1 reporter signal (Metalloendopeptidase OMA1, mitochondrial (OMA1, Homo sapiens, UniProt Q96E52); protease activity; concentration not given; baseline: untreated cells): 18.5 ± 5.6%
O=C(O)COP(=O)(O)O — Ki ratio (TPI1 (Saccharomyces cerevisiae, UniProt P00942, S211G); enzyme activity, competitive inhibitor, GPDH/NADH-coupled; pH 5.7, 25 °C, ionic strength 0.1 NaCl, with: glyceraldehyde 3-phosphate substrate; baseline: mutant over wild type): 3.2
CC(=O)N[C@H](C(=O)N1C[C@H](O)C[C@H]1C(=O)NCc1ccc(-c2scnc2C)cc1)C(C)(C)SCCCCCCNC(=O)C[C@@H]1N=C(c2ccc(Cl)cc2)c2c(sc(C)c2C)-n2c(C)nnc21 — ΔH (Bromodomain-containing protein 4, BD2 (BRD4, Homo sapiens, UniProt O60885, A384K/E383V/K378Q); ITC; 25 °C, BD2 mutant, binary): -10.9 ± 0.9 kcal/mol
CC1(C)[C@H](C(=O)O[C@H](C#N)c2cccc(Oc3ccccc3)c2)[C@@H]1C=C(Br)Br — remaining activity (uncharacterized protein; enzyme activity, inhibitor; Sf9 cell homogenate; 2.273 µM, 0.1667 h, with: α-naphthyl acetate substrate; baseline: no inhibitor): 97.1%
Cc1nn(C)cc1-c1nc2c(N3CCN(Cc4ccc(Cl)cc4)CC3)c(Cl)cnc2[nH]1 — remaining binding (MAP4K3 (Homo sapiens, UniProt Q8IVH8); KINOMEscan; 1 µM; baseline: DMSO control): 62%
CC[C@H](C)[C@H](NC(=O)[C@@H](NC(=O)[C@H](CC(C)C)NC(=O)[C@H](CC(N)=O)NC(=O)[C@H](CC(=O)O)NC(=O)[C@H](CCC(=O)O)NC(=O)[C@@H](NC(=O)[C@@H](N)CCCNC(=N)N)[C@@H](C)CC)C(C)C)C(=O)N[C@H](C(=O)N[C@@H](CCCNC(=N)N)C(=O)O)[C@@H](C)CC — kon (Epithelial sodium channel subunit alpha (Homo sapiens, UniProt P37088); binding, bio-layer interferometry): 42.3 M⁻¹ s⁻¹
C[C@H]1CN(c2n[nH]c3nc(N[C@H]4CC[C@H](NS(=O)(=O)CCC(F)(F)F)CC4)ncc23)CCO1 — relative abundance (CDC37 (Homo sapiens, UniProt Q16543); inhibitor, Kinobeads competition profiling; 0.16 µM; baseline: vehicle): 1
O=C(Nc1cccnn1)N1CCC(=Cc2cccc(Oc3ccc(C(F)(F)F)cn3)c2)CC1 — inhibition (IP3 receptor, rat; binding; 50 µM, with: [3H]IP3): 13%
CCCCCCCCCCCCCC[N+](C)(C)C — potency ratio (Sodium channel protein type 4 alpha, BTX-activated (Oryctolagus cuniculus, UniProt G1SLL9); baseline: internal over external application): > 200 fold
CC12CCC(CC1)C(C)(C)O2 — coupling efficiency (1,8-cineole 2-endo-monooxygenase (cinA, Citrobacter braakii, UniProt Q8VQF6, N242A); product per NADPH consumed, substrate, GC-MS; N242A enzyme variant): 36.4%
C[C@@H]1C[C@@H]([C@H](O)CC2CC(=O)NC(=O)C2)C(=O)[C@@H](C)C1 — FLuc/RLuc ratio (Protein transport protein Sec61 subunit alpha isoform 1 (Homo sapiens, UniProt P61619); reporter gene, inhibitor, dual luciferase; HEK293 with SP-CD4-FLuc reporter; concentration not given): 1.19 and 0.868 and 1.18 and 1.06
O=C(NO)[C@H]1COC(c2ccc(OC(F)(F)F)c(Cl)c2)=N1 — koff (UDP-3-O-acyl-N-acetylglucosamine deacetylase (Pseudomonas aeruginosa, UniProt P47205, C40S); bio-layer interferometry; 298 K): 0.0452 s⁻¹
Nc1ncnc2c1ncn2[C@H]1C[C@H](O)[C@@H](COP(=O)(O)OP(=O)(O)OP(=O)(O)O)O1 — kcat (Gag-Pol polyprotein, reverse transcriptase (gag-pol, Human immunodeficiency virus type 1 group M subtype B, UniProt P04585); single nucleotide extension; G:A mismatched primer-template): 0.0457 ± 0.00717 s⁻¹
CC1=NCCc2c1[nH]c1cc(O)ccc21 — remaining activity (DCLRE1A (Homo sapiens, UniProt Q6PJP8); exonuclease activity, inhibitor, fluorescence HTS; 10 µM, 80 min, with: 8 nM 5P-FQ substrate): 16.6%
CNC(=O)[C@H]1[Se][C@@H](n2cnc3c(NCc4cccc(I)c4)ncnc32)[C@H](O)[C@@H]1O — selectivity ratio (ADORA3 (Homo sapiens, UniProt P0DMS8); radioligand binding; baseline: Ki A2A over Ki A3): 1900 fold
CC[C@H](C)[C@H](NC(=O)CNC(=O)[C@@H](N)CCCCN)C(=O)N[C@@H](CC(C)C)C(=O)N[C@@H](CCCCN)C(=O)N[C@@H](CCCNC(=N)N)C(=O)N[C@@H](CCC(=O)O)C(=O)N[C@@H](CCCCN)C(=O)N[C@@H](CCCNC(=N)N)C(=O)N[C@@H](CC(C)C)C(=O)N[C@@H](CCCNC(=N)N)C(=O)N[C@@H](CCCNC(=N)N)C(=O)N[C@@H](CCCCN)C(=O)N[C@@H](CC(N)=O)C(=O)N[C@H](C(=O)N[C@@H](Cc1c[nH]cn1)C(=O)N[C@@H](Cc1c[nH]c2ccccc12)C(=O)N1CCC[C@H]1C(=O)N[C@@H](CCC(=O)O)C(=O)N[C@@H](CCC(=O)O)C(=O)NCC(=O)N[C@@H](CCCCN)C(=O)N[C@@H](CC(C)C)C(=O)N[C@@H](CCCNC(=N)N)C(=O)N[C@@H](CCC(=O)O)C(=O)N[C@@H](Cc1ccc(O)cc1)C(=O)N[C@@H](Cc1ccccc1)C(=O)N[C@@H](Cc1ccc(O)cc1)C(=O)N[C@@H](Cc1ccccc1)C(=O)N[C@@H](CCC(=O)O)C(=O)N[C@@H](CC(C)C)C(=O)N[C@@H](CC(=O)O)C(=O)N[C@@H](CCC(=O)O)C(=O)N[C@@H](C)C(=O)N[C@@H](CCC(=O)O)C(=O)N[C@@H](CCCNC(=N)N)C(=O)N[C@H](C(=O)N[C@@H](CC(N)=O)C(=O)N[C@H](C(=O)O)C(C)C)C(C)C)C(C)C — entropy change ΔS (PPP1CA (Homo sapiens, UniProt P62136); binding, isothermal titration calorimetry; concentration not given, 25 °C, PP1α residues 7-330): -36.8 ± 6.1 cal/mol/K
O=C(Cc1cccs1)N[C@@H]1C(=O)N2C(C(=O)O)=C(/C=C/c3ccc([N+](=O)[O-])cc3[N+](=O)[O-])CS[C@H]12 — Km (blaNDM-1 (Klebsiella pneumoniae, UniProt C7C422, C208S); hydrolysis, substrate): 16 ± 1 µM
COC(=O)[C@H]1[C@H]2C[C@@H]3c4[nH]c5cc(OC)ccc5c4CCN3C[C@H]2C[C@@H](OC(=O)c2cc(OC)c(OC)c(OC)c2)[C@@H]1OC — dopamine uptake (SLC18A2 (Homo sapiens, UniProt Q05940); inhibitor; HEK293, permeabilized; 15 µM, with: [3H]dopamine): inhibited
CN(C(=O)n1cnc(-c2ccc[n+]([O-])c2)c1)C1CCCCC1 — inhibition (Adra1a (Rattus norvegicus, UniProt P43140); radioligand binding; 50 µM, with: [3H]prazosin): 9%
C#CCCCCNC(=O)CI — reactivity ratio (3-ketoacyl-CoA thiolase, mitochondrial (Homo sapiens, UniProt P42765); mass spectrometry profiling; H460 cell lysate; 100 µM over 10 µM, UniProt P42765; baseline: high over low concentration): 1.49

For quick reference, copied from above:
CNC(=O)Oc1cccc2c1OC(C)(C)O2 — remaining activity (uncharacterized protein; enzyme activity, inhibitor; Sf9 cell homogenate; 1.163 µM, 0.1667 h, with: α-naphthyl acetate substrate; baseline: no inhibitor): 95.4%
[2H]c1c([2H])c([C@]2([2H])CCCN2C(=O)C(C)(C)Oc2ccc3cn[nH]c3c2)c([2H])c([2H])c1C([2H])([2H])[2H] — remaining binding (CDKL3 (Homo sapiens, UniProt Q8IVW4); KINOMEscan; 1 µM; baseline: DMSO control): 90%
O=C(c1ccc(Cl)cc1)N1CCN2C(=O)N(OC(=O)N3CCOc4ccccc43)C(=O)C2C1 (stereo not shown) — median ratio (Complement C1r subcomponent-like protein (C1RL, Homo sapiens, UniProt Q9NZP8); enzyme activity, inhibitor, MS-based ABPP; SW-620 conditioned medium; 10 µM, 1 h, 37 °C; baseline: compound over DMSO, lower = stronger inhibition): 1.21
Nc1ncnc2c1ncn2[C@@H]1O[C@H](COP(=O)(O)OP(=O)(O)OP(=O)(O)O)[C@@H](O)[C@H]1O — fluorescence ratio F+/F- (matB (Rhodopseudomonas palustris, UniProt Q6ND88, C106A/K488A/Q457C/R286C); binding; pH 7.5, 50 mM Tris-HCl, 100 mM NaCl, gel-filtered protein): 2.9
